# Measured values pooled from the literature.
# Every numbered part comes from another study and shows a few of its results, in no order.

# Sample 1
# Target: Centromere-binding protein 1, full length, N-terminal tag (CBF1, Saccharomyces cerevisiae, UniProt P17106, residues 1-351)
# Sequence of UniProt P17106 (whole entry, looked up): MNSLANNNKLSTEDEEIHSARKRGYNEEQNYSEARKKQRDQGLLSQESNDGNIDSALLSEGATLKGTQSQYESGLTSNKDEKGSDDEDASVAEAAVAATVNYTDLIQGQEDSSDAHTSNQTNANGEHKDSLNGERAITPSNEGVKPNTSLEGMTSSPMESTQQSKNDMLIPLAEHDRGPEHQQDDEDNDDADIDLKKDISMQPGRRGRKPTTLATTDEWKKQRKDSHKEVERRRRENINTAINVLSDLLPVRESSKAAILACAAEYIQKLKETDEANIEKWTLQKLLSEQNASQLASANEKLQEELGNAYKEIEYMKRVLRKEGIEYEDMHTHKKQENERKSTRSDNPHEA
# Method: protein-binding microarray
# Form: double-stranded DNA, one strand shown
# Medium: in vitro
# Concentration: 0.8 µM
# Setting: whole 60-bp probe, no competitor
# Direction: higher = stronger binding
# Shared flanks, not repeated: … GTCTTGATTCGCTTGACGCTGCTG
Strand,fluorescence intensity [a.u.]
CTAGTTGATACAATTCATGTGGGACACTAGAGATTC,521
GAATTCACCAATGATCTCCTGAAGCCCCTCAATTAG,515
CTAAATTTCTGTTACCACGGGGTTGTCAGTGGATTC,672
TGTACGAAGCTATATCACCACAATATAGTAGTTAGG,507
CCTAACTACTATAACCACCAGAAATAGCTTCGTACA,524
CTAGCCCTTAGATCTCACATGATGCTTGACTGATTC,780
GAATAAAACAGACTATACATGATGTTAAGACTATAG,504
CTACAGTATGTCCACCACGTAAATCAACAAAATTTC,505
CTAAGCATCCCACGCCGCGTGGTGCCTTTGTTCTTC,518
GAACACAATAGACATCATGAAAAGGTCCACGTTTAG,555
GAAAAGGAACAATCAGCTGAGATGTGTTGAGAATAG,633
CCTAACTACTATACACCGACCACATAGCTTCGTACA,541
CTAATTATCAAACGTCACCTGCGTATTATCAACTTC,892
GAAGATTGCCCTTCTCATCTGACCGCTACCCATTAG,572
CTAGATATTTACATTCACCTCACATATATACGCTTC,532
CTACCCATAATGTTGCACGTGACAGGTTTGTATTTC,20000
CTAAGTAGCTGTCATCATCACCTACAAATGTGTTTC,535
GAAAATTTCATAAAACACGTTTTAGTACCAGAATAG,586
CTAAACGATACCGAACATGTCACCTTGCATACCTTC,513

# Sample 2
# Target: Interferon regulatory factor 5, full length, phosphomimetic (IRF5, Homo sapiens, UniProt Q13568-2, residues 1-514, K96S/S451D/S453D/S456D/S462D)
# Method: protein-binding microarray
# Form: double-stranded DNA, one strand shown
# Medium: in vitro
# Concentration: 250 nM
# Setting: 60-bp whole probe
# Added: salmon DNA 0.4 mg/ml
# Baseline: random background probes
# Direction: higher = stronger binding
# Shared flanks, not repeated: GCCTAGCAC … GTCTTGATTCGCTTGACGCTGCTG
Strand,log fluorescence [z-score]
TCAACTTTCCAAAGCGTACTGTGCTAG,0.331
TTAGGTATCCTCATCCTTTAGTGCTAG,0.0537
GACGAACCGAGTCTCGAGACGTGCTAG,-0.149
GACGGTATCCTTATCCTGAGGTGCTAG,0.00984
TTAGGTTTCCTTCTCCTTTGGTGCTAG,1.22
TCATTTCTTTTATTAGTACTGTGCTAG,1.63
TTAGATCTCAGACTAGATTAGTGCTAG,0.00628
TCATGTTTTGTTTTTCAACTGTGCTAG,1.58
TTAGGTATCCTTCTCCTGTAGTGCTAG,0.363
GACGGTCTCGAACTGGGGACGTGCTAG,-0.352
TGTGATCTCATATGAAAACAGTGCTAG,0.528
GACGAAATGAGTCTCGAGACGTGCTAG,0.567
TTAGGTTTCGGACTGTGTTAGTGCTAG,5.16
TTAGGACCGCTACTGCTTTAGTGCTAG,-0.33
ACCTAATTCACTATTACCAAGTGCTAG,0.426
ACCCATCTCAAGTAGCCTAGCGTGCTA,-0.363
AAGATTCTAGCCTATAGAAGCGTGCTA,-0.2
CCCCATCTTGTTCCCAGAGAGTGCTAG,-0.183
GACGGACTGGGGACCGGGGACGTGCTA,-0.7
TACCTTTTCACTTTACACACGTGCTAG,2.19
TTAGCTATCGACACTGGGTTAGTGCTA,2.5
TCATAATTTACTTTGGTACTGTGCTAG,0.513
TCAGCTCTGCAGCTCAGACTGTGCTAG,-0.496
AGTAGCTGGGATTACAGGCAGTGCTAG,-0.701
TTAGGTTTCGCCTATCGGTTAGTGCTA,7.6

# Sample 3
# Target: Histone acetyltransferase KAT6A, winged helix 2, GST fusion (KAT6A, Homo sapiens, UniProt Q92794, residues 85-181)
# Method: protein binding microarray
# Form: double-stranded DNA, one strand shown
# Medium: in vitro
# Concentration: not given
# Setting: 8-mer, flanks averaged, mean of 2 arrays, mostly near background
# Baseline: not given
# Direction: higher = stronger binding
# Residues (chain): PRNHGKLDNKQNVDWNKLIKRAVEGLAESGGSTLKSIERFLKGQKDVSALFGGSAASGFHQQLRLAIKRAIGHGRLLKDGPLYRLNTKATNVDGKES
Strand,E-score
CGCGACTA,0.116
CCTCCACC,0.0979
ATTCATCG,0.0148
GTGCGATA,-0.03
CAGTTTGA,0.0916
GAGCGCGC,0.182
GTATCAAC,-0.084
AGGAAACC,0.0711
CCGGTAGA,-0.0279
TATTACCA,0.0381
ATGCATGC,0.109
ATACGGGA,0.0556
GAGTTGGC,0.0983
CTTGCGTA,0.0522
AGGCACAG,0.0772
ACGCAGTC,0.0134
GAAAGTGC,-0.107
AGAGCCCC,0.0769
AGGTAACC,-0.166
ACGGGAAA,0.112
CCGTTTAC,0.0776

# Sample 4
# Target: RNA binding protein fox-1 homolog 2, RRM domain, GST-SBP tag (RBFOX2, Homo sapiens, UniProt O43251-10, residues 100-194)
# Method: RNA Bind-n-Seq
# Form: RNA
# Medium: in vitro
# Concentration: 365 nM
# Setting: natural RNA segment, single round, ends assumed
# Baseline: no-protein control
# Direction: higher = stronger binding
# Shared flanks, not repeated: GGGAGUUCUACAGUCCGACGAUC … UGGAAUUCUCGGGUGCCAA
# Construct (chain): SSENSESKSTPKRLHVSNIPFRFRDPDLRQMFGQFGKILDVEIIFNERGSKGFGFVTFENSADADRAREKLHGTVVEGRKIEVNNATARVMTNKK
Strand,RBNS enrichment (R)
AAGCCAAACGCUUCUGUCCUCUUUCCUUCUGCAUUAACCCUUUGCUGAUCCUCAGGGGCCACUCCCCCAACACCCCUGUACUUGGGUGAGGGAUGUUGGACAGAGCCUGU,0.581
UAGACAUUCCUUAAGUAUUUGUAUUUAUUUAUGAUUAUCAAUUUUACAUAACAUUAAUAUUGUAUCAGACCUCCUUAUGAAAAUGAGUAUGGAUGUGCACAGUAUGUUUG,0.633
UUCCUACCUGGGCUGGUUUCUUUUCUAUAGGCUGUCUUGUCUUUCUUAUGCUAACCACUAUUUUAAAAUGAAAGACAAAGCUCUUUCAGAAGUUUCUCUUGGCUGUUUUA,0.58
CCUUGAAGGACACAGAGAGAAGUAUGUGUGUGUGGUGUGUUUCCAGCUCUGGCUCCCGAAGGGGCAAAGCAGCCUCCUGUUUACAGAAGGUCCACGCGAGCUAUCCCCGU,0.852
AAAGUAAAGUUGAAAAGAUCUAAGACAUCUAGUUACCUAGACUGUACCCAGCAGGUAUCACUUGGUAAAAAUACAAGAGCAAAGCCACUUGAGACUGAAGGUUCUUUAAA,0.248
CUUAAUGAACAGUGUCUAUACAUUUGCAUACACACACCCCCACCCCAGAGUGUUCUCAGUAUGUCAGAGAAAGUGCCACAGCAUUAGGACGGGAGCUUGGAGAACGUUUU,0.77
ACAGUUUUCCCAAGGAACACGUACAAGAUCAUUUAGCCACUACUCUGCUGCCUCUCAGCCUCUGCUGGGGCUUCCAGCUGGGUACAUGGCUGCUUGGCCGUUUGGGGCGG,0.224
UUAGAUGACCUUUUUUUCUUAUAAUAUUUGCAAGUGACAAGUUUGAAAACAAAGCAAGAUCAGUGCAGAGAAGCCACAUGACAUGUUGGGUGACAGAUUGGUCAUUUAUU,1.11
UACACACAUGAGCCAGUUUUUCCUUAUUGUAGUGUCCUGUGAGACAGACCAGCUCCAAGCACUGCUUAGAACAACGGCUCACUCUGACCUUGCUACACAUCCAUUUGGGG,0.547
GCCAAGGACUUCAAAGCUUGUUGAUCACUGCACUCUGGAUAAAACCCUUGGCUUCCUGUUCAAAUAGCCUUUCCAGGUUUAACUUCUUUAAGGAGCCUCAAGUGAAAAAA,0.838
AUACAGACAAAUACAUAAACCAAUGAAUAUAUUACAUAUUCUGUGUUCCAAUAAAACUUUAUUUAUGGACACUAAAAUUUGAAUUUCAUAAAAUUUUCCCAUGUCAAGAA,0.754
UGUGUCACUGGCAGGAUGCAUCACUCUCCAGGGCCUCUUUUUCGGAGCUACUCCCAAUUCCACUCUUCUGUGAUUCUGGCUGAGCAAGUUCAUGCCGGUAGAGGCUCAUU,7.81

# Sample 5
# Target: TAR DNA-binding protein 43, full length, His tag (TARDBP, Homo sapiens, UniProt Q13148, residues 1-414)
# Method: RNA Bind-n-Seq
# Form: RNA
# Medium: in vitro
# Concentration: 20 nM
# Setting: 6-mer, flanks averaged, single round
# Added: 150 mM KCl
# Baseline: input library
# Direction: higher = stronger binding
Strand,6-mer enrichment (R)
AUGUAC,0.664
UUCAGA,0.59
AGUGUU,0.836
GUAUUC,0.594
UCGGGA,1.77
CAACAG,0.744
CCAGGU,0.884
UGUUGC,0.815
CCAUCC,0.593
AUGCCG,0.847
GCGCUA,0.871
UCGGCG,1.34
ACCCUC,0.606
AUCGCU,0.569
CGGCGC,1.4
UAACUU,0.581

# A few entries again (sample 2):
Strand,log fluorescence [z-score]
TGTGATCTCATATGAAAACAGTGCTAG,0.528
GACGAACCGAGTCTCGAGACGTGCTAG,-0.149
TTAGGTTTCCTTCTCCTTTGGTGCTAG,1.22
GACGGACTGGGGACCGGGGACGTGCTA,-0.7
ACCCATCTCAAGTAGCCTAGCGTGCTA,-0.363
AGTAGCTGGGATTACAGGCAGTGCTAG,-0.701
TCATAATTTACTTTGGTACTGTGCTAG,0.513
GACGGTATCCTTATCCTGAGGTGCTAG,0.00984
GACGAAATGAGTCTCGAGACGTGCTAG,0.567
TCATTTCTTTTATTAGTACTGTGCTAG,1.63
TTAGGTATCCTCATCCTTTAGTGCTAG,0.0537
